# Assay results pooled from the literature.
# Parts stem from different laboratories: compare values within a part only. Changes are numbered by the printed parent chain.

# Series 1 — method: protein-binding microarray; form: double-stranded DNA, one strand shown; sample: in vitro; tested at: 2540 nM top; setting: 60-bp whole probe; added: salmon DNA 0.4 mg/ml; relative to: random background probes; direction: higher = stronger binding; shared flanks, not repeated: GCCTAGCAC … GTCTTGATTCGCTTGACGCTGCTG
# Target: Interferon regulatory factor 3, full length, phosphomimetic (IRF3, Homo sapiens, UniProt Q14653, residues 1-427, S386D/S396D/S398D/S402D/T404D/S405D)
# Sequence of UniProt Q14653 (whole entry, unmodified, looked up): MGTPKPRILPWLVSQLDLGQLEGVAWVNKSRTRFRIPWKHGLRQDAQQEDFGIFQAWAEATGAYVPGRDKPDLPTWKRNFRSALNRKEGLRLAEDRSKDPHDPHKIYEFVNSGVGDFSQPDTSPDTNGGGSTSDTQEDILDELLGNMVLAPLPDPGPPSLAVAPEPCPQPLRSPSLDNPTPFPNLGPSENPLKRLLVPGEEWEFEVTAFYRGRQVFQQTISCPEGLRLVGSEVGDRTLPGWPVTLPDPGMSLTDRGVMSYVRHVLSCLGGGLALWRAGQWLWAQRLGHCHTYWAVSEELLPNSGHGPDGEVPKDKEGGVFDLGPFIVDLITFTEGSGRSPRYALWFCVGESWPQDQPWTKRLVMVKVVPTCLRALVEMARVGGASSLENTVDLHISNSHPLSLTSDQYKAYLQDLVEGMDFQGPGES
Sequence,fitted relative affinity
GGTCTGGCTGGCTCCTGCACGTGCTAG,-0.925 z-score
TTAGGTATCATTCTCCTTTAGTGCTAG,4.74 z-score
TCATCTTTCACTGCTCCCACTGTGCTA,1.27 z-score
TTAGGTAGCCTTATCCTTTAGTGCTAG,1.3 z-score
GAAGAAATTTAATAGTCACTGTGCTAG,-0.628 z-score
GACGGTTTCGACTTTCGGTACGTGCTA,4.32 z-score
TTAGGGTTCGGTTCCGGTTAGTGCTAG,3.86 z-score
GACGGACTGCTTCTCCTAACGTGCTAG,-0.0517 z-score
TTAGGACTGGGTATTGGTTAGTGCTAG,-0.799 z-score
CACGGTCTCCTTTTCCTGACGTGCTAG,4.2 z-score
GACGATTCGAGTTTCGAGACGTGCTAG,1.51 z-score
TTAGGGCTGGGACTGGGTTAGTGCTAG,-1.28 z-score
TTAGATATCGCGACTGGATTAGTGCTA,-0.327 z-score
TGAGGTTTCGGTCTCGGTTAGTGCTAG,8.18 z-score
AATGTATAACGCCATTAGCTGTGCTAG,-0.181 z-score
GAGGGTCTCGGTCTCGGGACGTGCTAG,-0.0341 z-score
TTAGGTTTCCTTATCTTTTAGTGCTAG,7.44 z-score

# Series 2 — method: DHFR PCA, deep sequencing; sample: yeast; added: (+)-ABA 710 µM; relative to: wild-type fitted maximum; direction: higher = stronger binding
# Target: ABI1, truncated, D143A, DHFR fusion (Arabidopsis thaliana)
# Setting: methotrexate growth selection, single substitutions
# Starting sequence: PYL1, truncated, DHFR fusion (Arabidopsis thaliana); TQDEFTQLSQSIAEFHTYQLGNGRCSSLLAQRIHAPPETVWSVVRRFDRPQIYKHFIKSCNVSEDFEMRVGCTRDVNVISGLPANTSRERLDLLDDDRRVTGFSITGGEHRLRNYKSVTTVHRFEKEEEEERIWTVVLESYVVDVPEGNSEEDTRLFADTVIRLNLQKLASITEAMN
Change,relative binding score [%]
S42V,92.8
V76W,-9.14
E89Q,40.7
V76C,104
R90S,91
I172S,82.4
V62W,83.5
S42F,83.4
N177L,88.9
S11T,102

# Series 3 — method: RNA Bind-n-Seq; form: RNA; sample: in vitro; tested at: 100 nM; relative to: input RNA pool; direction: higher = stronger binding
# Target: RING finger protein unkempt homolog, zinc fingers 1-6, SBP tag (UNK, Homo sapiens, UniProt Q9C0B0, residues 30-357)
# Sequence of UniProt Q9C0B0 (30-357, looked up): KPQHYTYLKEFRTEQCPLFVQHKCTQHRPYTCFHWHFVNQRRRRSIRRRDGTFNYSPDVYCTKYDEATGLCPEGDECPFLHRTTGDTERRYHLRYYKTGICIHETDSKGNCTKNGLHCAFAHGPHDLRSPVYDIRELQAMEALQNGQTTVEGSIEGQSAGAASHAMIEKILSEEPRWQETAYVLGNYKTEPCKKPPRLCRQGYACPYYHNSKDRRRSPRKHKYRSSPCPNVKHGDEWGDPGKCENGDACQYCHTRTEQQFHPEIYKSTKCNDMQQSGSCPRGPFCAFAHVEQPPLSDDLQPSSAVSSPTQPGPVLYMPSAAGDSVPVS
# Setting: RNA with constant flanks, vertebrate orthologous sites, ends assumed
# Shared flanks, not repeated: GGGAGUUCUACAGUCCGACGAUC … CAACAGAGGAUUGAGCAUCA
Sequence,bound/input enrichment
GUGAGGGUCUACUGACCACUCACUAUUAUGUCUGGUAUCUGUAAACACUCUCUUUGUUCUUAGUCUUUUUCUUGUAUAAUUGAUGUCCUUUAAAAUUGUUACUGUAUAACAGGGCUUAUA,1.27 ratio
UGUUUUCUUAUUUUAGGUAUCACUGCCCAAUGCCUAAGAUCUUUUACGUCCAGCUGACUGUAGGAAACAAUGAAUUUUUCGGGGAAGGAAAGACCCGACAAGCUGCUAGACACAAUGCUG,1.09 ratio
CUUUUUUCUCUCUUUCCCCUUCCUUUUCCUUUCUGGGGGGUACAGUUUGCUCUCUCCCGAUCGUGAUCGUAACAAACUGAUCUGUUCUGGGUGUUGCUCUAGUGACAUGCGAUUCUAUAG,0.82 ratio
AGAAGAGCUGAGUAAAGUAAGGCCGUGUUCACUUAGAGUGUUUUUCUUGUUUUUAGUUUGCUAGGGGUUGGGUGGGUUGUGGUACACACCUUCUCUGAGGCAGGAGCUGUAAUGAUACCU,3.05 ratio
GAUACUGAAUAGUAUUAAGCAUUUUCGUCUUCCUUUACCUUUGAUCCCCUUCUUAAUAUCCAGUCUACUUUUUAAAAUUUCAGACUUCACUGCUCUUUGAAUUGAUAAUUCCAAUUUUCA,0.361 ratio
CGGGCCCUACAUAUAAAAUGCCUAUCAAAUGUUGACUGUGAACCGAAACUUCACUUACAUAGGUCUGUUAAGUUACACAGAAGUUUCCUUAAGCCUGAGCCGCGCUGCCCUGUCUGAAGU,0.294 ratio
GUAUAUAAAUUACCCAAGGCAGUGACCAGCUUUAUAUAUACAUGUGUACAUAUAUAUAUCUUGUCGGUUUAAAAAUCAUCUACAUUUAUUUAAAGUUCUAUAUUGGAUUGUUUGCUCUGA,0.751 ratio
UCAUUGUACUGCAAAAAUCAUCCUCGUUUUAAAUUAGCCACAGUGAUAACUAGUCUGCACUAGUAGAAUCAUUUACCUUUUAAAUUAUCUGCUUUGUCUGAUACCUGAAACACAUCAAAA,0.655 ratio
CCUACAAUAAUGAAAACCUACAGGAAUUUUUUUAUUUUUCAUUUUCCCCCUAGGUAUACUUAGUCUUUUUCCCCCCCAGGCAGAUCAUUCUGAGUGUGCGAGUGUGUGUGCACAUGUUAC,1.27 ratio
ACCCCCCACUCCCUGUAAGAGGGAAUGGGGGAAGCCUGAUGACCCUCAGCUGUUCCAAUCUAGUAUUUUUUUUUUCUUUUUUAAAAUUACUCUAUUUAUUAUGACGAUGGUGACUCCCCA,3.37 ratio
CUAUAAUUAUGAAAAUCUAAAGGAUUUUUAAUGUUUAAUUUCCCCCAACAUGUUAAGACACCUUUUUCCAGGCAGAUCAUUUGGAGUGUGCGAGUGUGUGUGCACAUGUUACAAAGACAU,0.234 ratio

# Series 4 — target: CEP164, C-terminal peptide (human); method: DHFR complementation, deep sequencing; sample: yeast; relative to: wild type; direction: higher = weaker binding
# Setting: single substitutions, model-inferred values
# Starting sequence: PDZK1, PDZ domain 2 (human); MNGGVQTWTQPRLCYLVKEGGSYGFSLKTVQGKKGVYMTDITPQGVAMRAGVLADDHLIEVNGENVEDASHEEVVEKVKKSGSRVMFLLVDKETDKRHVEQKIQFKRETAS; partner HNRVKVYRF
Change,binding free energy change
K33G,0.437 kcal/mol
D55V,0.704 kcal/mol
A47C,1.75 kcal/mol
T94R,0.0193 kcal/mol
S81V,0.95 kcal/mol
D95G,-0.115 kcal/mol
E60K,0.38 kcal/mol
T9Q,0.0268 kcal/mol
Q31W,0.0312 kcal/mol
M48T,0.558 kcal/mol
P43W,0.111 kcal/mol

# Series 5 — method: universal PBM; form: double-stranded DNA, one strand shown; sample: in vitro; tested at: not given; direction: higher = stronger binding
# Target: Sal-like protein 4, full length isoform B (SALL4, Homo sapiens, UniProt Q9UJQ4-2, residues 1-616)
# Setting: 8-mer, flanks averaged, mean of replicates
# Residues (chain): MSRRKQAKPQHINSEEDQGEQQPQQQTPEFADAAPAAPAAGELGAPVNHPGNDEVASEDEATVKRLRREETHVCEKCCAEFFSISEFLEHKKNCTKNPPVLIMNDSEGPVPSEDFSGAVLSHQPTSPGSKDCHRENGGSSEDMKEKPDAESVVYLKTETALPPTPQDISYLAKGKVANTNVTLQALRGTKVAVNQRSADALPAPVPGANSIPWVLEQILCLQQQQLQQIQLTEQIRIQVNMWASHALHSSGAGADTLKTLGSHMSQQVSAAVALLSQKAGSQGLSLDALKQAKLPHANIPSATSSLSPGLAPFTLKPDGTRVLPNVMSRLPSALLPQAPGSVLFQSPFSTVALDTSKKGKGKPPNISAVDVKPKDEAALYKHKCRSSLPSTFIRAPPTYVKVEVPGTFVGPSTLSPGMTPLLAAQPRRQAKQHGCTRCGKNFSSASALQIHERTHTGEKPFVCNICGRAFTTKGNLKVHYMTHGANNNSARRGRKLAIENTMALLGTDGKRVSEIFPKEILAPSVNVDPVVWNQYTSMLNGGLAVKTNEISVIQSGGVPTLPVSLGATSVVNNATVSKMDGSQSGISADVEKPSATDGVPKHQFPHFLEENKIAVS
Sequence,E-score
CTTATGTC,0.0534
CTGCAGCC,-0.22
ATAAGAAC,0.24
AGAAGGCC,-0.12
AACCGTAA,0.00733
GACCTGCA,-0.0331
CATGGGTC,-0.228
AGCGTGTC,-0.122
ACTCCTGG,-0.312
AAGGAAAT,0.241
CCTCGCTA,-0.171
ATGGTCTG,-0.00581
CATTTAGG,-0.0273
AGGTTACG,0.0864
ACGCGGCT,-0.164
GTGTACAC,0.277
CCCTAAGG,-0.171
CTATGAAG,0.183
CACAGGCA,-0.2
AAGCACTA,0.093
AGATGAAC,-0.0309
ACATGTTC,0.161
TAGCCCTA,0.0472
GTGGAAAA,0.141
AGGTCCCA,-0.126

# Series 6 — target: JUND, bZIP domain (human); method: DHFR protein complementation; sample: yeast; relative to: wild-type JUN-FOS pair; direction: higher = stronger binding
# Setting: single substitutions, most at no-binding floor
# Starting sequence: JUN, bZIP domain (human); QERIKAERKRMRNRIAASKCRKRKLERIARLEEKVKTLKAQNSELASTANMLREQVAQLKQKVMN; partner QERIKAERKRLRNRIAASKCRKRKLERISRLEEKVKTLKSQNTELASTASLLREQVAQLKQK
Change,binding fitness [natural log]
R30W,-0.777
Q55R,-1.12
A46I,-0.48
T37R,-0.675
T37N,-0.596
L45M,-1.13
A40W,-1.11
R30K,-0.72
E44L,-0.884
M51F,-0.77

# Further values, each from its own experiment
Molecule,target,assay,test system,conditions,scale,endpoint,value
"PhoQ, residues 284 288 289 292 302 303 SSLVEF","PhoP, residues 12 14 15 18 19 TTLRV (Escherichia coli, UniProt P23836)","Sort-seq, refers to: YFP reporter",E. coli,"PhoQ-PhoP variant library, added: 10 µM Mg2+","relative to: high Mg2+ state, higher = stronger signaling",fold induction,0.435
SNARRSLNFGGST,human cyclin B2,"cyclin docking binding, deep mutational scanning","peptide, yeast cyclin B2-Cln2 system",,direction not given,"score relative, wild type, peptide",0

# Some of these lines once more (series 1):
Sequence,fitted relative affinity
TCATCTTTCACTGCTCCCACTGTGCTA,1.27 z-score
TTAGGTAGCCTTATCCTTTAGTGCTAG,1.3 z-score
GAAGAAATTTAATAGTCACTGTGCTAG,-0.628 z-score
GACGGTTTCGACTTTCGGTACGTGCTA,4.32 z-score
TTAGGGTTCGGTTCCGGTTAGTGCTAG,3.86 z-score
GACGGACTGCTTCTCCTAACGTGCTAG,-0.0517 z-score
TTAGGACTGGGTATTGGTTAGTGCTAG,-0.799 z-score
CACGGTCTCCTTTTCCTGACGTGCTAG,4.2 z-score
GACGATTCGAGTTTCGAGACGTGCTAG,1.51 z-score
TTAGGGCTGGGACTGGGTTAGTGCTAG,-1.28 z-score
